Measurements collected from several papers.
≈ marks a conversion by molar mass, not a printed value.

| SMILES | target or system | assay | test system | setting | how to read | measurement | value |
| --- | --- | --- | --- | --- | --- | --- | --- |
| O=C(NCC(O)(Cn1cncn1)c1ccc(F)cc1F)[c-]1cccc1.[Cl-].[Co+3].c1cc[cH-]c1 (racemic) | Brugia pahangi | motility, Worminator | adult female | 50 µM, 2 d |  | inhibition | 0% |
| CC1=C(Cn2cc(CN3CCC(=O)CC3)nn2)C(=O)c2ccccc2C1=O | Schistosoma mansoni |  | adult worms | 25 µM, 24 h |  | killing | 36.5% |
| Cc1ncsc1-c1ccc(C(C)NC(=O)C2CC(O)CN2C(=O)C(NC(=O)CCCCCCCCCCN2CCCC(Nc3ncc(Cl)c(Nc4ccccc4S(=O)(=O)C(C)C)n3)C2)C(C)(C)C)cc1 (stereo not drawn) | 22Rv1 | RNA-seq, refers to: SYNM mRNA |  | concentration not given | baseline: DMSO | log2 fold change | -1.31 |
| C=C(NC(=O)c1csc(-c2nc3c(cc2O)-c2nc(cs2)C(=O)NC(C(C)O)C(=O)NC(=C(C)OC)c2nc(cs2)C(=O)NC2c4nc(cs4)C(=O)NC(COC(=O)c4c5c6c(cccc6n4O)COC(=O)C(OC4CC(C)(O)C(N(C)C)C(C)O4)C2OC5)c2nc-3cs2)n1)C(N)=O (stereo not drawn) | Streptococcus agalactiae |  | 25 clinical isolates |  |  | MIC50 | 0.0312 µg/mL (≈ 0.0217 µM) |
| CC(C)(C)NCC(SS(=O)(=O)O)c1ccccc1 (stereo not drawn) | Schistosoma mansoni |  | infected mice | 600 mg/kg single, dosed day 7, perfusion day 44 |  | mean female worms recovered | 9.2 worms per mouse |
| OC(Cn1cncn1)(Cn1cc(-[c-]2cccc2)nn1)c1ccc(F)cc1F.[Cl-].[Co+3].c1cc[cH-]c1 (racemic) | Brugia pahangi | motility, Worminator | adult female | 50 µM, 3 d |  | inhibition | 2% |
| COC1CN([C@H]2CC[C@H]([C@@]3(C)Oc4c(Cl)cc(C(=O)NCc5c(SC)cc(C)[nH]c5=O)c(C)c4O3)CC2)C1 |  | RNA-seq, refers to: ZBTB46 mouse homolog | mouse, HT-1376 xenograft, whole blood | dose not given | baseline: vehicle | log2 fold change | 0.555 |
| CNS(=O)(=O)Nc1nccc(Cc2c(C)c3ccc(Oc4ncccc4F)cc3oc2=O)c1F | NCI-H1623 | cell viability |  | 7 days |  | IC50 | 40.2 nM |
| CC1=C(Cn2cc(CN3CCC(F)(F)CC3)nn2)C(=O)c2ccccc2C1=O | Schistosoma mansoni |  | adult worms | 10 µM, 72 h |  | killing | 43.5% |
| FC(F)(F)c1cccc(CNc2nc(NC3CCN(Cc4ccccc4)CC3)c3nc[nH]c3n2)c1 | Cryptococcus neoformans |  | wild type | 17 h |  | growth-inhibitory concentration | ≥ 36 µM |
| [2H]C([2H])([2H])C1(C([2H])([2H])[2H])NC(=O)N(c2ccc(F)c(C(C)(F)F)c2)C1=O | Schistosoma mansoni |  | adult stage, infected mice | oral, 25 mg/kg | baseline: untreated infected | worm burden reduction | 100% |
| CCCOC(=O)N1c2cc(CNC)ccc2[C@H](NC(=O)C(=O)Nc2ccc(Cl)c(F)c2)[C@H]1CNC(=N)N | Human immunodeficiency virus 1 | viral infection, Env pseudovirus | TZM-bl, 620345.c01 CRF01_AE |  |  | IC80 | > 100000 nM |
| Nc1ncc(-c2cc(-c3cnn(CC(F)(F)F)c3)ncc2F)nc1C(=O)NC1CNCC(F)C1 (stereo not drawn) | PIP5K1A | KINOMEscan |  | 1 µM | baseline: DMSO control | remaining binding | 100% |
| C=C[C@]1(C)C[C@@H](OC(=O)CSc2ccc(NC(=O)c3ccco3)cc2)[C@]2(C)[C@H](C)CC[C@]3(CCC(=O)[C@H]32)[C@@H](C)[C@@H]1O | Mycoplasma gallisepticum | sigmoid Emax model, AUC24h/MIC | infected chickens |  |  | Hill slope | 4.22 |
| CC(=O)O[C@@H]1[C@@H](OC(C)=O)[C@H](Sc2sc(C(=O)c3ccc(Br)cc3)c(N)c2-c2nc3ccccc3s2)OC[C@@H]1OC(C)=O | hepatitis A virus | plaque reduction | HM 175 | non-toxic concentration |  | viral titre reduction | 20% |
| CN1CCCNC(=O)c2cccc(c2)C(=O)NCCCN(C)CCCNc2cccc3c2C(=O)c2cccc(c2C3=O)NCCC1 | SAS | RNA-Seq, refers to: TRNAU1AP mRNA |  | 1 µM, 6 h | baseline: untreated cells | log2 fold change | -0.976 |
| C=CC(=O)Nc1cccc(Cn2ncc3cnc(Nc4cnn(CCOC)c4)nc32)c1 | CAMK2G human | binding, KINOMEscan |  | 100 nM | lower = stronger binding | percent of control | 100% |
| CC(=O)OC[C@H]1O[C@@H](Sc2sc(C(=O)c3ccc(Br)cc3)c(N)c2-c2nc3ccccc3s2)[C@H](OC(C)=O)[C@@H](OC(C)=O)[C@@H]1OC(C)=O | hepatitis A virus | plaque reduction | HM 175 | non-toxic dose NG, mean over three titres |  | viral reduction | 40% |

A few entries again:
| SMILES | target or system | assay | test system | setting | how to read | measurement | value |
| --- | --- | --- | --- | --- | --- | --- | --- |
| COC1CN([C@H]2CC[C@H]([C@@]3(C)Oc4c(Cl)cc(C(=O)NCc5c(SC)cc(C)[nH]c5=O)c(C)c4O3)CC2)C1 |  | RNA-seq, refers to: ZBTB46 mouse homolog | mouse, HT-1376 xenograft, whole blood | dose not given | baseline: vehicle | log2 fold change | 0.555 |
| FC(F)(F)c1cccc(CNc2nc(NC3CCN(Cc4ccccc4)CC3)c3nc[nH]c3n2)c1 | Cryptococcus neoformans |  | wild type | 17 h |  | growth-inhibitory concentration | ≥ 36 µM |
